Published values of several laboratories.
Lines come from different studies, so protocols differ.

`CC[C@@H]1C(=O)N(C)c2cnc(Nc3ccc(C(=O)N[C@H]4CC[C@H](N5CCN(CC6CC6)CC5)CC4)cc3OC)nc2N1C(C)C` has an IC50 of 0.0213 µM (HD-MB03; cell growth; 168 h, DMSO).
`Cn1cc(-c2ccc(-c3cncc(Cl)c3N3CCC4(CCNC4=O)CC3)cc2)cn1`: “log2 fold change” -1.05 (COLO 205; gene expression, microarray, measured: CASP1 mRNA; concentration not given, 2 h; relative to: untreated cells).
`CCn1cc(-c2cc(Cn3ccoc3=N)cc3c2CCN([C@@H](C)c2cc(OC)ccn2)C3=O)c(C(F)(F)F)n1` gave an EC50 of > 30 µM (NCI-H2030; cell growth, inhibitor; 120 h).
For `CC1(C)CCC(CN2CCN(c3ccc(C(=O)NS(=O)(=O)c4ccc(NCC5CCOCC5)c([N+](=O)[O-])c4)c(Oc4cnc5[nH]ccc5c4)c3)CC2)=C(c2ccc(Cl)cc2)C1`, the viable cells was 94.6% (THP-1; annexin V/PI flow cytometry, measured: annexin V-/PI-; 0.2 µM, 24 h).
For `CCn1cc(-c2cc(Cn3ccnc3)cc3c2CCN([C@H](c2cc(OC)ccn2)C2CC2)C3=O)c(C(F)(F)F)n1`, the EC50 was 0.0279 µM (JeKo-1; cell growth, inhibitor; 120 h).
For `Cc1noc2c1-c1ccccc1C(c1ccc(Cl)cc1)=N[C@H]2CC(N)=O`, the IC50 was 0.806 µM (HD-MB03; cell growth; 168 h, DMSO).
`COc1cnc2cccc(N3CCc4c(cc(Cn5ccnc5C)cc4-c4cn(C)nc4C(F)(F)F)C3=O)c2c1` has an EC50 of 5.68 µM (NCI-H596; cell growth, inhibitor; 120 h).
`Cc1cccc(-c2[nH]c(CNc3ccccc3F)nc2-c2ccc3ncnn3c2)n1` has a viability of 77% (MM1.S pomalidomide-resistant; XTT; 1 µM; relative to: untreated).
The IC50 of `Cc1nc(Nc2ncc(C(=O)Nc3c(C)cccc3Cl)s2)cc(N2CCN(CCO)CC2)n1` is reported as 2.79 µM (HD-MB03; cell growth; 168 h, DMSO).
With `O=C(/C=C/C=C/C=C/C1CCCCC1)NC1=C[C@@](O)(/C=C/C=C/C=C/C(=O)NC2=C(O)CCC2=O)[C@@H]2O[C@@H]2C1=O` the GI50 was 28 µM (SK-MEL-24; cell growth, CellTiter-Glo; 78 h).
